Results pooled from the literature.
Values joined by “and” are separate records of one study, mostly repeats; a detail may differ. ± marks the error that the study gave.
Matrix protein 2 S31N: Matrix protein 2 (Influenza A virus, UniProt P0DOF5, S31N)

The inhibition of `COc1ccc2c(O)c(C(=O)Nc3ccc(CN)cc3)ccc2c1` is reported as over 56% (SARS-CoV-2; viral infection; D614G; 10 µM).
`O=c1[nH]cnc2c(C3NC(COP(=O)(O)OP(=O)(O)OP(=O)(O)O)C(O)C3O)c[nH]c12` (stereo not drawn) has an IC100 of 1.02 ± 0.04 µM (SARS-CoV-2; cytopathic effect; Vero C1008, Omicron BA.1; 48 h).
The inhibition of `Cc1ccc(CNC23CC4CC(CC(C4)C2)C3)o1` is reported as 37% (Matrix protein 2 S31N; proton channel activity, inhibitor; Influenzavirus A, S31N mutant; 100 µM).
`CC(=O)c1cccc(-c2nc(Nc3ccccc3)nc(N3CCOCC3)n2)c1` — result for “pseudovirus entry inhibition”: “inhibited” (SARS-CoV-2; D614G spike pseudovirus; concentration not given).
For `COc1ccc2ccc(C(=O)Nc3ccc(CN)cc3)c(O)c2c1`, the inhibition was 49% (SARS-CoV-2; viral infection; D614G; 10 µM).
`Oc1ccc(CCCCCCCCC(O)c2c(O)cccc2O)cc1O` (stereo not drawn) gave a selectivity index of 1.7 (SARS-CoV-2; HEK293T ACE2, Alpha B.1.1.7; reference: CC50 over EC50).
For `N#Cc1ccc(N2N=C(c3ccc(C(=O)O)cc3)CC2C2CCCC2)cc1Cl` (stereo not drawn), the EC50 was 12.7 µM (SARS-CoV-2; viral replication; Calu-3, B.1.617.2 Delta variant; 72 h).
The EC50 of `O=C(CCCCCCCCCCc1ccc(O)c(O)c1)c1c(O)cccc1O` is reported as 7.3 µM (SARS-CoV-2; viral replication, MTT; HEK293T ACE2, Delta B.1.617.2).
`CC(C)C(=O)OC[C@H]1O[C@@](C#N)(n2ccc(N)nc2=O)[C@H](O)[C@@H]1O` gave an EC90 of 0.2 ± 0.05 µM (SARS-CoV-2; viral replication; Calu-3, Beta).
For `CC1OC(OC2C(OC(=O)C34CCC(C)(C)CC3C3=CCC5C6(C)CCC(OC7OC(CO)C(O)C(O)C7O)C(C)(C)C6CCC5(C)C3(C)CC4O)OCC(O)C2O)C(O)C(O)C1OC1OCC(O)C(OC2OCC(O)C(OC3OCC(O)C(O)C3O)C2O)C1O` (stereo not drawn), the IC50 was 1.45 µM (SARS-CoV-2; viral infection; Vero, omicron variant B.1.1.529).
`CC(C)CC(C(=O)N1CC2(CC1C#N)C(=O)Nc1ccccc12)N(C)C(=O)c1cc2c(F)cc(F)c(F)c2[nH]1` (stereo not drawn) gave an inhibition of 9.09% (SARS-CoV-2; viral replication; VeroE6/TMPRSS2, Omicron variants; 0.003704 µM).
`CCn1ccc(-c2cc(-c3cnn(C)c3)cc([C@@H](C)NC(=O)c3cc(OCCN(C)C)ccc3C)c2)n1` — result for “Q269H mutation frequency”: 0.44% and 1.38% and 0.41% and 0% (SARS-CoV-2; WA1 lineage passage 11; concentration not given).
`Clc1nc(CNC23CC4CC(CC(C4)C2)C3)ns1` gave an inhibition of 64% (Matrix protein 2 S31N; proton channel activity, inhibitor; Influenzavirus A, S31N mutant; 100 µM).
The selectivity index of `CC(=O)Oc1ccc(CCCCCCCCC(=O)c2c(OC(C)=O)cccc2OC(C)=O)cc1OC(C)=O` is reported as 4.3 (SARS-CoV-2; HEK293T ACE2, Alpha B.1.1.7; reference: CC50 over EC50).
The ΔTm of `O=C(NC1CCN(c2ncnc3[nH]cnc23)CC1)c1cccc(NS(=O)(=O)c2ccc(C(F)(F)F)cc2)c1` is reported as 2 °C (Replicase polyprotein 1ab, nsp14 W385A (rep, Severe acute respiratory syndrome coronavirus 2, UniProt P0DTD1, W6310A); thermal shift; SARS-CoV-2).

Repeated from above:
`CC(=O)c1cccc(-c2nc(Nc3ccccc3)nc(N3CCOCC3)n2)c1` — result for “pseudovirus entry inhibition”: “inhibited” (SARS-CoV-2; D614G spike pseudovirus; concentration not given).
